Assay results collected from several papers.
Numbered parts are unrelated; each lists some results of a single study. Substitutions count along the parent as printed.

Set 1 — method: RNA Bind-n-Seq; molecule type: RNA; sample: in vitro; tested at: 365 nM; reference: no-protein control; direction: higher = stronger binding; endpoint: RBNS enrichment (R)
Target: RNA binding protein fox-1 homolog 2, RRM domain, GST-SBP tag (RBFOX2, Homo sapiens, UniProt O43251-10, residues 100-194)
Notes: natural RNA segment, single round, ends assumed
Construct (chain): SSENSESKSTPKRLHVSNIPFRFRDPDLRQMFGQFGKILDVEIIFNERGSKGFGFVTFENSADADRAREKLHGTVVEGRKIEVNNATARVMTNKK
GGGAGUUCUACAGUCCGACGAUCUUUAGUUUCAUGCACAGUUGCAAUAUUUUCUUCAAAAAUAAAACUCUGUACAAACUUUGGGCCCGAUUCAUAAGAAAAAGAAGUUUGCUAUUAACACGGGAUUUUUUUAAUGGAAUUCUCGGGUGCCAA: 0.508
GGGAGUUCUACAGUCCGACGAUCCCAGUCCCAACACCUGUCCUGUGUCUCAGGGUGGUCCUAGCUUCUCCUUAGGCAGCCAGGAAUUGGAACCCCCAUGCCCGCAGCACGUUUUUCUUAUGAUCAGGGAGUGUUGGAAUUCUCGGGUGCCAA: 2.31
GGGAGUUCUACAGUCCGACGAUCGCUGGUAGUCAUGUGGGCUUGCCUUCUCUGCCAAACGACUGGGAAACCAAAAUGAGCCCACCUUGUGUUCUUCCUAGCUCCACCCUCCCCGUGCUGCUGUGUUCUGCUCCUGGAAUUCUCGGGUGCCAA: 0.577
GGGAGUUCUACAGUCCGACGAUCCCUCUGUUCUCCUUUCUGACCCACUGGGAUUUGCUAGCAGGCUGCCCCAGCCCCAUCACCGAAACACAUACUCAAGAGCUCAAAUACCACUGCUCCCACCAGCGUACGGAUGGAAUUCUCGGGUGCCAA: 0.446
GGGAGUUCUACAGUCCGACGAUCAACAGUCUAGUUAUAUUCCCUCUUCUUGCAAAGCACAAGCUGGGACCGCGAGCACAUUGCAGCCCCAACGGUGGCCCAUCUUCAGCGGAGAGCGAGAACCAUUUUGGAAAUGGAAUUCUCGGGUGCCAA: 0.172
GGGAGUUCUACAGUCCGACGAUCUUUGCUUCCUGUAUAUUCUUAUACAUGUUUUUGACUCCAGAAAAAUGACACCUUUAGACUGUUUCAGAGCCAAUGAUGAUAUUUCCUUUAAAUAAUUAUUACAUUAUUCUUGGAAUUCUCGGGUGCCAA: 0.638
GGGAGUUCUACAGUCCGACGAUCUGGAUUGCCUUACUUCUCUUGCCUUAAAUAUAUCCCAUAUAUUUAAUAUGUCAAAAAGGGCUUGAGGUGAAUUUCAUUAAAUGGAAUAAUAUGAUGCCACUUUGCAGCUAUGGAAUUCUCGGGUGCCAA: 0.389
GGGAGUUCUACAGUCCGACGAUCGGAUAUCGAAAUGAAGGAGCUGCCUUAAGCACUUUAGAAAAAGAAUUUUUUUACAAUUCAUUUUGACUCUCAUGGCUGACCAUGUCAUUAUGUCUUUAAAUUUUGGUAAAUGGAAUUCUCGGGUGCCAA: 0.4
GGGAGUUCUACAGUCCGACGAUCCUUCGCUAAUAUUUUAAACAGUCCUGUAAAAAACCAAAAAGGACUUUUUGUAUAGAAAGCACUACCCUAAGCCAUGAAGAACUCCAUGCUUUGCUAACCAAGAUAACUGUUGGAAUUCUCGGGUGCCAA: 0.325
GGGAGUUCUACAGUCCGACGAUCCCUAAGUGAUUCAGAAGAGAGGAGGGAAGUUGUGCACUCUGAAAAUGCAUGAAAAACAAAGGCAAAAACUAGUGGGAAAUGUGUAGAACUGUUAACUGAGAUGGCUUCGAUGGAAUUCUCGGGUGCCAA: 16.9
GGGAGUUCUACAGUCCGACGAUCUCAAUUCCUUUAUUCAGGAAAGGAUACUUUAUUGCAUUAUUGUUGCAGAAGCAUAGAUUUAAUUGCAUCUUUAUUUUGAAAAACAAAUGAAAAUUGAUGGGGUUUAAAGCUGGAAUUCUCGGGUGCCAA: 0.651
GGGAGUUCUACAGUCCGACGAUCAGGCAUUAAAAAUGCAUACCAUGCUUUCAGAACAAAAGCUCUGGGCCAGAAAGGCAAUUUGGCUAAAAAAUGAAUAAGACUACUUCUAAUGUAACUAAGCAUCUCCACUAUGGAAUUCUCGGGUGCCAA: 0.532

Set 2 — target: CREB3L4, bZIP domain (human); method: DHFR protein complementation; sample: yeast; reference: wild-type JUN-FOS pair; direction: higher = stronger binding; endpoint: binding fitness
Notes: single substitutions, most at no-binding floor
Parent: JUN, bZIP domain (human); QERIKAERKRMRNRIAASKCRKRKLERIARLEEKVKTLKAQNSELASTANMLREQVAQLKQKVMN; partner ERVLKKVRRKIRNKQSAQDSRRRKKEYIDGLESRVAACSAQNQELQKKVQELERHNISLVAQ
Q41I: -1.34 natural log
A49V: -1.24 natural log
S47K: -1.52 natural log
L31K: -1.56 natural log
V56W: -1.35 natural log
R30Y: -1.49 natural log
N42C: -1.55 natural log
E54A: -1.21 natural log
A57E: -1.53 natural log
N42V: -1.34 natural log
A57Q: -1.52 natural log
N42S: -1.52 natural log
N42I: -1.24 natural log
R30V: -1.31 natural log
V56G: -1.49 natural log
M51T: -1.52 natural log
L31M: -1.57 natural log
A29S: -1.42 natural log
L45W: -1.52 natural log

Set 3 — method: Sort-seq; item: YFP reporter; sample: E. coli; notes: PhoQ-PhoP variant library; with: 10 µM Mg2+; reference: high Mg2+ state; direction: higher = stronger signaling; endpoint: fold induction
Molecule: PhoQ, residues 284 288 289 292 302 303 ALASRC
PhoP, residues 12 14 15 18 19 TQALL (Escherichia coli, UniProt P23836): 7.86
PhoP, residues 12 14 15 18 19 NYFRM (Escherichia coli, UniProt P23836): 1.27
PhoP, residues 12 14 15 18 19 QYFSL (Escherichia coli, UniProt P23836): 4.32

Set 4 — method: universal PBM; molecule type: double-stranded DNA, one strand shown; sample: in vitro; tested at: not given; direction: higher = stronger binding; endpoint: E-score
Target: Sal-like protein 4, full length isoform B (SALL4, Homo sapiens, UniProt Q9UJQ4-2, residues 1-616)
Notes: 8-mer, flanks averaged, mean of replicates
ACTTACCA: 0.103
CCTATAGC: 0.117
CCTAAGTA: 0.0552
GCGACACA: -0.158
CCACCGTA: -0.133
ACACCTCA: -0.0525
GCTACTCC: -0.17
ACTTTCCA: 0.216
AGCGAGAG: -0.0641
ACTCAGCC: -0.259
CTGCTATA: 0.102
CCAATGCA: -0.0296
CCAGGTTC: -0.28
AAGCGTCA: -0.0558
TCAAAAAA: 0.253
AAACAGTG: 0.0559
GATTCTCC: -0.228
CAAGTAGG: -0.123
AGCACTCG: -0.274
AAAGACAG: 0.0171
ACCAGGCG: -0.293
GCGCGTGA: -0.198
GTCAACGA: -0.0897
CACCCGTG: -0.247
AAACTCAA: 0.157

Set 5 — target: CCNB2, cyclin fold, Cln2 fusion (human); method: yeast growth competition, sequencing; sample: yeast; notes: weak parent motif; reference: not given; direction: higher = stronger binding; endpoint: normalised enrichment score
Parent: CDT1 docking peptide (human); PPARRRLRLSVDE; partner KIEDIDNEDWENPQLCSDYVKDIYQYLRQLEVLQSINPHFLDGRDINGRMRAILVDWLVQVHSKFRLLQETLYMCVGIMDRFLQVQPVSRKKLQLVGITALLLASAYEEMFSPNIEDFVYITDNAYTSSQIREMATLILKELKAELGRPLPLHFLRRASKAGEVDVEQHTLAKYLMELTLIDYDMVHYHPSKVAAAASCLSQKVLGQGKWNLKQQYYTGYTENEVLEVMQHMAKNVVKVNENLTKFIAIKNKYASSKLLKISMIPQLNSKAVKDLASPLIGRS
PPARRRLALSVDE [R8A]: 0.438
PPARRRLRLSVAE [D12A]: 1.64
APARRRLRLSVDE [P1A]: 0.397
PPARKRLRFSVDE [R5K L9F]: 0.981
PPARRRLRLAVDE [S10A]: 0.149
PPARRALRLSVDE [R6A]: 0.612
PPARRRLRFSVDE [L9F]: 0.277
PPAARRLRLSVDE [R4A]: 0.174
PPARARARLSVDE [R5A L7A]: 0.242
